Measured values gathered from unrelated publications.
Protocols differ between the studies behind these lines. ± marks the error that the study gave. Bridges are numbered along the chain shown (N, C = ends). Where no end group is shown, it is not given here.

`ClC1=C(Cl)C2(Cl)C3CC4OC4CC3C1(Cl)C2(Cl)Cl` (centres unmarked) gave an IC50 of 22 µM (PC6-3; cell viability, MTT; 4 h).
For `O=c1[nH]c(=O)n([C@H]2C[C@H](O)[C@@H](CO)O2)cc1F`, the IC50 was greater than 15 µM (293FT; cell viability).
`CC(C)C[C@H](NC(=O)[C@H](CCCCN)NC(=O)[C@H](CCCCN)NC(=O)[C@H](CC(C)C)NC(=O)[C@H](CC(C)C)NC(=O)[C@H](CCCCN)NC(=O)[C@H](CCCCN)NC(=O)[C@H](CC(C)C)NC(=O)[C@H](CC(C)C)NC(=O)[C@H](CCCCN)NC(=O)[C@H](CCCCN)NC(=O)[C@H](CC(C)C)NC(=O)[C@@H](N)CC(C)C)C(=O)N[C@@H](CCC(=O)O)C(N)=O` has an IC50 of less than 6 µM (HCCC9810; cell growth or viability, CCK-8).
`CCCCCCCCCCCCCCCCCCOP(=O)([O-])OC1CC[N+](C)(C)CC1` gave an IC50 of 214 µM (MDA-MB-231 spheroids, LINK-A PIP3-BM+/+; spheroid growth, 3D spheroid viability).
With `O=C(Cn1cnc2ccccc2c1=O)NCc1cccnc1` the IC50 was greater than 100 µM (HEK293; cell growth or viability, crystal violet; 48 h).
For `CC(C)c1ccc2c(c1)CC[C@H]1[C@](C)(CN)CCC[C@]21C`, the IC50 was 6.69 ± 0.83 µM (C8161.Cl 9 melanoma; cell viability, MTS; 24 h).
For `CCN.CCN.O=C([O-])CC(=O)[O-].O=C([O-])CC(=O)[O-].[Pt+4]`, the IC50 was greater than 200 µM (SW480; cell viability, MTT; 96 h).
With `O=C(Cn1cnc2ccccc2c1=O)Nc1cc(Cl)ccc1O` the IC50 was greater than 100 µM (HEK293; cell growth or viability, crystal violet; 48 h).
`N.N.[Cl][Pt][Cl]` has an IC50 of greater than 50 µM (HFF; cell growth or viability, resazurin).
For `O=S(=O)([O-])[O-].[Cu+2]`, the IC50 was 578 µM (Caco-2 monolayers; transepithelial resistance; 48 h, repeated dosing).
For `O=C1[O][Pt]2([NH][C@@H]3CCCC[C@H]3[NH]2)[O]C1=O`, the IC50 was 31.3 µM (CCD-18Co; cell growth or viability, MTT; 72 h).
`lead` gave an IC50 of 5.2 ± 2.56 µM (U-251 wild type; cell viability, MTT; 48 h).
For `CC/C(=C(\c1ccccc1)c1ccc(OCCNC)cc1)c1ccccc1`, the IC50 was 0.119 µM (cultured mouse DRG neurons; action potential firing frequency, current clamp; 2 to 4 min, together with: 80 pA current injection).
For `glaucarubolone glucoside`, the IC50 was 40.1 ± 3.41 µM (CCD-18Co; viability; 24 h).
The IC50 of `N.N.[Cl][Pt][Cl]` is reported as 8.6 µM (PC-3; cell growth or viability, MTT; 72 h).
`O=C1C(=O)c2ccccc2C2=C1CC(Cn1cc(C[Se]c3ccccc3)nn1)O2` (centres unmarked) gave an IC50 of 0.07 to 0.29 µM (six human cancer cell lines; MTT; 72 h, range over cell lines).
The IC50 of `C#CC[C@H](NC(=O)CNC(=O)CNC(=O)[C@H](Cc1ccc(O)cc1)NC(=O)[C@H](CCCNC(=N)N)NC(=O)[C@H](CCC(N)=O)NC(=O)[C@@H]1CCCN1C(=O)[C@H](CCC(N)=O)NC(=O)[C@H](Cc1ccc(O)cc1)NC(=O)[C@@H](NC(=O)[C@H](CCCNC(=N)N)NC(=O)[C@@H]1CCCN1C(=O)[C@H](CCCNC(=N)N)NC(=O)[C@H](CC(C)C)NC(=O)[C@H](CC(N)=O)NC(=O)[C@H](Cc1ccc(O)cc1)NC(=O)CNC(=O)CN)[C@@H](C)O)C(N)=O` is reported as greater than 200 µM (A2780; cell growth or viability, MTT).
The IC50 of `CN1CCC(CNc2ccc3ncc(-c4cccc(OC(F)(F)F)c4)n3n2)CC1` is reported as roughly 2.5 µM (22Rv1; cell viability, ATP; 72 h).
The IC50 of `CC[C@@]1(O)C(=O)OCc2c1cc1n(c2=O)Cc2cc3ccccc3nc2-1` is reported as 1.49 µM (PC-3; cell growth or viability, MTT; 48 h).
`N.N.[Cl][Pt][Cl]` gave an IC50 of 9.32 µM (SMMC-7721; cell growth or viability, CCK-8).
`CC[C@@]1(O)C(=O)OCc2c1cc1n(c2=O)Cc2cc3c([N+](=O)[O-])cccc3nc2-1` gave an IC50 of greater than 15 µM (293FT; cell viability).
For `O=C(Cn1cnc2ccccc2c1=O)Nc1ccccc1O`, the IC50 was greater than 100 µM (HEK293; cell growth or viability, crystal violet; 48 h).
`COC(=O)/C=C/c1cc(O)ccc1O` has an IC50 of greater than 10 µM (H2030 (EGFR wild type); cell viability, Alamar Blue; 120 h).
`CC(/C=C/C(C)=C/[C@@H]1Cc2nc(cs2)CCCCC(=O)O[C@@H](C)C/C(C)=C/C=C\C(=O)O1)=C\CN(C)C` has an IC50 of 0.64 ± 0.29 µM (primary CLL cells; apoptosis, annexin V/PI staining; 24 h, 10% FBS).
For `FFPKVAGVAAKVLKKFCTISKKC (disulfide 17-23 (inferred)) (disulfide)`, the IC50 was 128 µM (HaCaT; cell viability, MTT).
`CN1CCC2(CC1)c1ccccc1N(Cc1ccc(C(=O)NO)cc1)C2c1ccccc1` (racemic) gave an IC50 of 0.00173 µM (IPF patient basal cells; bronchosphere formation, 3D organoid and MTT; 14 days).
With `CC[C@H](C)[C@H](NC(=O)[C@H]([C@@H](C)CC)N(C)C(C)=O)C(=O)N[C@H](C(=O)N[C@@H](CC(C)C)C(=O)[C@@]1(C)CO1)[C@@H](C)O` the IC50 was 10 µM (LAPC4; AR transcriptional activity, antagonist, PSA promoter luciferase; 24 h).
With `N.N.[Cl][Pt][Cl]` the IC50 was 12.9 µM (PC-3M; cell growth or viability, SRB).
With `[Cl][Cd][Cl]` the IC50 was 10.2 µM (ReNcell VM, differentiated, astrocytic; cell viability, live/dead staining; 3D alginate microarray; 24 h exposure then 48 h recovery, 6 days without growth factors).
For `trans,trans,trans-[Pt(N3)2(OH)2(NH3)(py)]`, the IC50 was 85.9 µM (HaCaT; phototoxicity; together with: blue light λmax 420 nm).
`CC(C)[C@@H]1NC(=O)[C@H](C)OC(=O)[C@@H](C(C)C)NC(=O)[C@@H](C(C)C)OC(=O)[C@H](C(C)C)NC(=O)[C@H](C)OC(=O)[C@@H](C(C)C)NC(=O)[C@@H](C(C)C)OC(=O)[C@H](C(C)C)NC(=O)[C@H](C)OC(=O)[C@@H](C(C)C)NC(=O)[C@@H](C(C)C)OC1=O` has an IC50 of 0.021 µM (SHG-44; cell growth or viability, SRB).
The IC50 of `[Cl][Cd][Cl]` is reported as 34 µM (Caco-2 monolayers; viability, MTT; 96 h, repeated daily dosing).
With `C=C(C)C1CC=C(COC(=O)CCC(=O)OC2OC3OC4(C)CCC5C(C)CCC(C2C)C35OO4)CC1` (centres unmarked) the IC50 was 2.95 ± 0.7 µM (RPMI-7951; cell viability, MTT; 24 h, together with: deferoxamine 20 µM, 1 h before).
For `CC(C)=CCc1c(O)cc2oc3cc(O)c(O)c(CC=C(C)C)c3c(=O)c2c1O`, the IC50 was 65 ± 3.5 µM (H1L6.1c3; cell viability, MTT).
For `N.N.[Cl][Pt][Cl]`, the IC50 was 0.077 ± 0.006 µM (CH1; cell viability, MTT; 96 h).
With `Nc1ccn([C@@H]2CS[C@H](CO)O2)c(=O)n1` the IC50 was greater than 250 µM (human T-lymphocyte; cell growth or viability; 72 h).
`CCCCCCCCCC(=O)N[C@@H](Cc1ccccc1)C(=O)N[C@H](C(=O)NCC(=O)N[C@H](C(=O)N[C@@H](CC(C)C)C(=O)N[C@H](C(=O)N1CCC[C@H]1C(=O)N[C@@H](CC(C)C)C(=O)N[C@@H](C)C(=O)N[C@@H](CC(C)C)C(=O)NCC(=O)N[C@@H](C)C(=O)N[C@@H](CC(C)C)C(=O)N[C@H](C(=O)N[C@@H](CCCCN)C(=O)N[C@@H](CC(C)C)C(=O)N[C@@H](Cc1ccccc1)C(=O)N[C@@H](CCCCN)C(N)=O)[C@@H](C)O)[C@@H](C)CC)[C@@H](C)O)[C@@H](C)CC` gave an IC50 of 6.24 µM (CCRF-CEM; cell growth or viability, CCK-8; 24 h).
For `N.N.[Cl][Pt][Cl]`, the IC50 was 15.6 ± 9.15 µM (H460; cell viability, MTT; 4 h, together with: cimetidine 3 mmol/L).
For `N.N.[Cl][Pt][Cl]`, the IC50 was 69.1 ± 3.2 µM (HT-29; cell viability, MTS; 72 h).
For `C[n+]1ccc(-c2ccc(I)cc2)cc1`, the IC50 was 46.6 µM (MN9D; cell growth or viability, MTT; 16 h).
`Pertussis toxin` gave an IC50 of 0.0001 µM (LAD2 mast cells; β-hexosaminidase release; 2 h pretreatment, together with: substance P, 30 min).
The IC50 of `COc1ccc(NC(=O)Cn2cnc3ccccc3c2=O)c([N+](=O)[O-])c1` is reported as greater than 100 µM (HEK293; cell growth or viability, crystal violet; 48 h).
`salinomycin 20-ethyl carbonate sodium` has an IC50 of 0.271 ± 0.0522 µM (JIMT-1; MTT; 72 h, 3D PCL culture, normoxia).
`CC(/C=C/C(C)=C/[C@@H]1Cc2nc(cs2)CC[C@@H](N)CC(=O)O[C@@H](C)C/C(C)=C/C=C\C(=O)O1)=C\CN(C)C` gave an IC50 of 0.33 ± 0.25 µM (primary CLL cells; apoptosis, annexin V/PI staining; 24 h, 10% human plasma).
For `N=C(N)NCCC[C@H](NC(=O)[C@H](Cc1c[nH]c2ccccc12)NC(=O)[C@H](CCC(N)=O)NC(=O)[C@H](Cc1c[nH]c2ccccc12)NC(=O)[C@H](CCCNC(=N)N)NC(=O)[C@H](Cc1c[nH]c2ccccc12)NC(=O)[C@H](CCC(N)=O)NC(=O)[C@H](Cc1c[nH]c2ccccc12)NC(=O)[C@H](CCCNC(=N)N)NC(=O)CCCCCN)C(N)=O`, the IC50 was 119 µM (HT-29; cell growth or viability, MTT).
`Cn1nnc2c(C(N)=O)ncn2c1=O` gave an IC50 of 50 µM (U87 MGMT-negative; Alamar Blue; 7 d).
With `Cc1sc2c(c1C)C(c1ccc(Cl)cc1)=N[C@@H](CC(=O)OC(C)(C)C)c1nnc(C)n1-2` the IC50 was 0.0026 ± 0.0017 µM (Light II cells; GLI reporter gene, inhibitor; Hedgehog pathway).
`O=C1C(=O)N(CCCN=C=S)c2c(Br)cc(Br)cc21` gave an IC50 of roughly 1 µM (HT-29; cell growth or viability, MTS; 48 h).
For `CC(=O)Nc1ccn([C@H]2CS[C@@H](CO)O2)c(=O)n1`, the IC50 was greater than 250 µM (human T-lymphocyte; cell growth or viability; 72 h).
The IC50 of `C#CC[C@H](NC(=O)[C@H](CO)NC(=O)CNC(=O)[C@H](CCCNC(=N)N)NC(=O)[C@@H](NC(=O)[C@H](CC(C)C)NC(=O)[C@@H]1CCCN1C(=O)[C@H](C)NC(=O)CNC(=O)[C@@H](NC(=O)[C@H](CO)NC(=O)[C@H](CCCNC(=N)N)NC(=O)CNC(=O)[C@H](CO)NC(=O)[C@H](CCCNC(=N)N)NC(=O)[C@H](CC(C)C)NC(=O)[C@H](CCCNC(=N)N)NC(=O)[C@H](CCCN)NC(=O)CNC(=O)[C@@H]1CCCN1C(=O)[C@@H]1CCCN1C(=O)[C@H](C)N)[C@@H](C)O)[C@@H](C)O)C(N)=O` is reported as greater than 200 µM (A2780; cell growth or viability, MTT).
